Measured values of several laboratories.
Each line is one published result; not all experiments were run side by side. ± marks the error that the study gave.
CBF1: CBF1 1-351 (Saccharomyces cerevisiae, UniProt P17106)
Chain of UniProt P17106 (whole entry, looked up): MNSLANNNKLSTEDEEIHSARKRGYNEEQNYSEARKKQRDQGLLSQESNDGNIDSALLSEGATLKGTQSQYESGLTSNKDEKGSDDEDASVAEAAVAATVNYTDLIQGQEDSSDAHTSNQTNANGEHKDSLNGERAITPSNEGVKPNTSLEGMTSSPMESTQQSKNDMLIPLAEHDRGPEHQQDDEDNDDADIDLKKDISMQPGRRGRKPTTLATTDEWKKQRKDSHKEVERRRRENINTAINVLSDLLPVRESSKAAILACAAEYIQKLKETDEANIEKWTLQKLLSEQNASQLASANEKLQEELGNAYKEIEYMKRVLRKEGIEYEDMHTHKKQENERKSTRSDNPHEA
U2AF2: U2AF2 148-342 (Homo sapiens, UniProt P26368)
Chain of UniProt P26368 (whole entry, looked up): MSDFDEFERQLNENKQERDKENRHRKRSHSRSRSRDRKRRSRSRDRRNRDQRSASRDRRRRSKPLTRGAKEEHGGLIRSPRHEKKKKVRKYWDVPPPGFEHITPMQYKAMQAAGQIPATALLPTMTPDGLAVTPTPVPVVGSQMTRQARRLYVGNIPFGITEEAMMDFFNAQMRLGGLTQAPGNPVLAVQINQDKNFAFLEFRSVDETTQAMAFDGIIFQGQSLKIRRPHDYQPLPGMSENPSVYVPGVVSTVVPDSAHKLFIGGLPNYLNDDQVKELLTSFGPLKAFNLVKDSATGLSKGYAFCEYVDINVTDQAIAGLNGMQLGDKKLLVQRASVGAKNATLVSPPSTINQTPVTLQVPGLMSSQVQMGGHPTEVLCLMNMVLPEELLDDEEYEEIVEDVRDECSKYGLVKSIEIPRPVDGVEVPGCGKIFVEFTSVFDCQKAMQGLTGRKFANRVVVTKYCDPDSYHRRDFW
TGM2: TGM2 2-687 (Homo sapiens, UniProt P21980)
Chain of UniProt P21980 (whole entry, looked up): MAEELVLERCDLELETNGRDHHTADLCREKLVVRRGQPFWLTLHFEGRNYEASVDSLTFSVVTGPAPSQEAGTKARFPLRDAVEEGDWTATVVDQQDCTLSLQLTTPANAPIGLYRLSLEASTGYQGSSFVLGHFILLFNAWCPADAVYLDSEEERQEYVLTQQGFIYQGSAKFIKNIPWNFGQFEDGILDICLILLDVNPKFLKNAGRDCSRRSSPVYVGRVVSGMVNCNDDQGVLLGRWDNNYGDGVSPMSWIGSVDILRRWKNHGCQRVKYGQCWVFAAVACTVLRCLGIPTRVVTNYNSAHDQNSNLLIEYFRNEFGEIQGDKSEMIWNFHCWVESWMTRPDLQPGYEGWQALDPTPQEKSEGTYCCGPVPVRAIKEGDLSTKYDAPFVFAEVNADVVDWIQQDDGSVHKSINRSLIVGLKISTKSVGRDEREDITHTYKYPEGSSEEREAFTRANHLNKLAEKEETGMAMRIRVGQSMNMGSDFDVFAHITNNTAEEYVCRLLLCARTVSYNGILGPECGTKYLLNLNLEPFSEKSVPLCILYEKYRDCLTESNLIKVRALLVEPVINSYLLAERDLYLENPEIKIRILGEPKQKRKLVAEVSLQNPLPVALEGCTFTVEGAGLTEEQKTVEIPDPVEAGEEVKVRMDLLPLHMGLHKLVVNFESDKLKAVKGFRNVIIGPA
SUA7 full length assumed: SUA7 full length assumed (Saccharomyces cerevisiae, UniProt P29055)
Chain of UniProt P29055 (whole entry, looked up): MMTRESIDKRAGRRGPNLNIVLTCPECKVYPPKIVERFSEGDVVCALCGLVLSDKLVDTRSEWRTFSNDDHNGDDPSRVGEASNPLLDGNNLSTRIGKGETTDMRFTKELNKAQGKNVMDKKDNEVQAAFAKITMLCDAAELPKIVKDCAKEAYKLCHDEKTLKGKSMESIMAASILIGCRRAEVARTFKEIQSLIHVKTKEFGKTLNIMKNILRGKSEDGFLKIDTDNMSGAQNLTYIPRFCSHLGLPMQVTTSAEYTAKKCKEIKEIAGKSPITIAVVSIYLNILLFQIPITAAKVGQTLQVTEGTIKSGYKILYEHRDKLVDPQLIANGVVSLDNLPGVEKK
SPT15 full length assumed: SPT15 full length assumed (Saccharomyces cerevisiae, UniProt P13393)
Chain of UniProt P13393 (whole entry, looked up): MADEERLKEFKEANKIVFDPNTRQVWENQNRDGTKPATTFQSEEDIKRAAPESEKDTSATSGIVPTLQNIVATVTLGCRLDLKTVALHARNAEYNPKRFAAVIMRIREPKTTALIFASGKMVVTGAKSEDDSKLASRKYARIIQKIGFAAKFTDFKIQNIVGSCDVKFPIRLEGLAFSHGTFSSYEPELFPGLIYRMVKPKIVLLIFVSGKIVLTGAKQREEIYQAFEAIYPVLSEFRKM
APOBEC3A full length assumed E72A: APOBEC3A full length assumed E72A (Homo sapiens, UniProt P31941)
B1: human septin-2; sequence looked up; chain MSKQQPTQFINPETPGYVGFANLPNQVHRKSVKKGFEFTLMVVGESGLGKSTLINSLFLTDLYPERVIPGAAEKIERTVQIEASTVEIEERGVKLRLTVVDTPGYGDAINCRDCFKTIISYIDEQFERYLHDESGLNRRHIIDNRVHCCFYFISPFGHGLKPLDVAFMKAIHNKVNIVPVIAKADTLTLKERERLKKRILDEIEEHNIKIYHLPDAESDEDEDFKEQTRLLKASIPFSVVGSNQLIEAKGKKVRGRLYPWGVVEVENPEHNDFLKLRTMLITHMQDLQEVTQDLHYENFRSERLKRGGRKVENEDMNKDQILLEKEAELRRMQEMIARMQAQMQMQMQGGDGDGGALGHHV
Chain of UniProt O61735 (whole entry, looked up): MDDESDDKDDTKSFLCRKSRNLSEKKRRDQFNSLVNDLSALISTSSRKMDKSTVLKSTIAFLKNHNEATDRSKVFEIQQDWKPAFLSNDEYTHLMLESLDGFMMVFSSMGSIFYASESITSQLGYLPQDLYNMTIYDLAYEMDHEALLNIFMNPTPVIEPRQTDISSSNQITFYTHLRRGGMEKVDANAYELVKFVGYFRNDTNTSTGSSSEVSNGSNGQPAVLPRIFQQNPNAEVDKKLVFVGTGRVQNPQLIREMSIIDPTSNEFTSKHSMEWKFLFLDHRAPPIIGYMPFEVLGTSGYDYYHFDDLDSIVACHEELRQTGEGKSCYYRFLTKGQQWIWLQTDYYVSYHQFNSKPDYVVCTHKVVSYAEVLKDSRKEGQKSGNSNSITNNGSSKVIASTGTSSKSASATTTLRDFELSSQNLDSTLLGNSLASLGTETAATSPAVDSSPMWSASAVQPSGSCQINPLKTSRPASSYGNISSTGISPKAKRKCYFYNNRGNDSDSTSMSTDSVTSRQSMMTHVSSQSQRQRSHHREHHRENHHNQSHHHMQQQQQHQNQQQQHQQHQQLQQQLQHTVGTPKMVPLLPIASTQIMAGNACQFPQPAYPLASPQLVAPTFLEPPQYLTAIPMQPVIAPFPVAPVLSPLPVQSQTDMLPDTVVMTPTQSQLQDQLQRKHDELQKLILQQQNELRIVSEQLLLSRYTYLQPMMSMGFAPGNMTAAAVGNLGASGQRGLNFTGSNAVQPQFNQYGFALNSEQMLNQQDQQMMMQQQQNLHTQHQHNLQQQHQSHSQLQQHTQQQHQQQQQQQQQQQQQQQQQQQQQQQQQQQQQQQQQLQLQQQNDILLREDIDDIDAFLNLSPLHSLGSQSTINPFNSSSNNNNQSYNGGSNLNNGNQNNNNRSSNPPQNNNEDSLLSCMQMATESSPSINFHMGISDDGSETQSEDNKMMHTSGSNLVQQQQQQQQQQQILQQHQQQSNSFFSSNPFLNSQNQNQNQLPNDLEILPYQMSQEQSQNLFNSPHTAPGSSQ

Substance | tested on | assay | test system | setting | how to read | endpoint | result
insulin |  | LC-MS/MS | spiked human serum | 10.83 ng/mL, 4 h, room temperature | reference: untreated control | bias | -7.1%
CAATACACTGTTATCAGACCCACGTGTCGAGCTACTCGTTCGGTTATCCGGCGGTATGAC (dsDNA) | CBF1 | MITOMI | double-stranded DNA, one strand shown | not purified |  | Kd | 0.139 ± 0.007 µM
CACGUUUUU (ssRNA) | U2AF2 | sequencing of bound RNA | RNA | motif only |  | Kd | 4.48 µM
GGGAGCAGGAGAGAGGUCAGAUGAUUAGAAAAUUACAAGAGAUGUGAUCGCUGACCUAUGCGUGCUAGUGUGA (ssRNA; 2'-fluoro pyrimidines) | TGM2 | SPR | RNA | added: MgCl2 5 mM | higher = more binding | relative binding | 46.8 RU
CAATACACTGTTATCAGACACACGTGTCAAGCTACTCGTTCGGTTATCCGGCGGTATGAC (dsDNA) | CBF1 | MITOMI | double-stranded DNA, one strand shown | not purified |  | Kd | 0.145 ± 0.007 µM
GGGAGCAGGAGAGAGGUCAGAUGGCGGAGAUUCUGAGGGUUCUCCUGUUCCAGCCUAUGCGUGCUAGUGUGA (ssRNA; 2'-fluoro pyrimidines) | TGM2 | SPR | RNA | added: MgCl2 5 mM | higher = more binding | relative binding | 116 RU
ATTTTTTAGTCCTATATATACTCGCTCTGCACTTGTCAAGTCAATCGGTCC (dsDNA; 5'-amino-C6 primer) | SUA7 full length assumed | array | double-stranded DNA, one strand shown | TFIIB alone |  | Kd | 0.0065 ± 0.00176 µM
UAUUUCAUU (ssRNA) | U2AF2 | sequencing of bound RNA | RNA | motif only |  | Kd | 2.16 µM
CAATACACTGTTATCAGACACACGTGTAGAGCTACTCGTTCGGTTATCCGGCGGTATGAC (dsDNA) | CBF1 | MITOMI | double-stranded DNA, one strand shown | not purified |  | Kd | 0.364 ± 0.024 µM
GAAAAACATCTAACATAAATATATAAACGCAAACATCAAGTCAATCGGTCC (dsDNA; 5'-amino-C6 primer) | SPT15 full length assumed | array | double-stranded DNA, one strand shown | TBP alone |  | Kd | 0.0408 ± 0.00647 µM
GGGAGCAGGAGAGAGGUCAGAUGGUACGAGAUUCUGAGGGUUCUUUUUGCACCCUAUGCGUGCUAGUGUGA (ssRNA; 2'-fluoro pyrimidines) | TGM2 | SPR | RNA | added: MgCl2 5 mM | higher = more binding | relative binding | 135 RU
GGAUUCAAG (ssRNA) | U2AF2 | sequencing of bound RNA | RNA | motif only |  | Kd | 6.4 µM
proteasome subunit alpha-2 (human) | CYB5R4 knockout human cells | PP6 interaction, 3xFLAG-PP6C IP-MS |  | concentration not given | reference: CYB5R4 KO over parental | log2 fold change | 1.08
GGGAGCAGGAGAGAGGUCAGAUGGUCGAGAUUUUGAGGGUUCUCCGCUCCAGGCCUAUGCGUGCUAGUGUGA (ssRNA; 2'-fluoro pyrimidines) | TGM2 | SPR | RNA | added: MgCl2 5 mM | higher = more binding | relative binding | 85.1 RU
AUUAUGUCGUUGGAUUUA (mixed DNA/RNA; single-stranded, dU at 7, rest RNA) | APOBEC3A full length assumed E72A | competitive fluorescence polarization |  |  |  | IC50 | 41 ± 24 µM
CCGCCGCTCACGTGGCGAACT (dsDNA) | Clk 1-71 (Drosophila melanogaster, UniProt O61735) | BLI | double-stranded DNA, one strand shown |  |  | K1/2 | 270 nM
AUUAUGUCGUUGGAUUUA (mixed DNA/RNA; single-stranded, dU at 7, dC at 8, rest RNA) | APOBEC3A full length assumed E72A | competitive fluorescence polarization |  |  |  | IC50 | 1.6 ± 0.2 µM
AGCGTAGCACTGGGCT (dsDNA) | protein full length assumed E367A (Bacillus pumilus, UniProt A3FMN7) | EMSA | double-stranded DNA, one strand shown |  |  | binding | no binding
GUUUUACUU (ssRNA) | U2AF2 | sequencing of bound RNA | RNA | motif only |  | Kd | 3.03 µM

Substance | tested on | assay | test system | setting | how to read | endpoint | result
AUUAUGUCGUUGGAUUUA (mixed DNA/RNA; single-stranded, dC at 8, rest RNA) | APOBEC3A full length assumed E72A | competitive fluorescence polarization |  |  |  | IC50 | 23 ± 8 µM
CAUCUGACU (ssRNA) | U2AF2 | sequencing of bound RNA | RNA | motif only |  | Kd | 11.1 µM
CAATACACTGTTATCAGACACACGTGTCGAGCTACTCGTTCGGTTATCCGGCGGTATGAC (dsDNA) | CBF1 | MITOMI | double-stranded DNA, one strand shown | not purified |  | Kd | 0.236 ± 0.016 µM
CUUUAUUUC (ssRNA) | U2AF2 | sequencing of bound RNA | RNA | motif only |  | Kd | 3.78 µM
GAATTCCTGTAAAGTAATGTGGAGCTCCGTTCGTCTCAAGTCAATCGGTCC (dsDNA; 5'-amino-C6 primer) | SPT15 full length assumed | array | double-stranded DNA, one strand shown | TBP alone |  | Kd | 0.0293 ± 0.0022 µM
CAATACACTGTTATCAGATACACGTGTCGAGCTACTCGTTCGGTTATCCGGCGGTATGAC (dsDNA) | CBF1 | MITOMI | double-stranded DNA, one strand shown | not purified |  | Kd | 0.185 ± 0.009 µM
TTGTGCTACGGTCTCTCCACCCCCTGCTGCTGCTGTCAAGTCAATCGGTCC (dsDNA; 5'-amino-C6 primer) | SUA7 full length assumed | array | double-stranded DNA, one strand shown | TFIIB alone |  | Kd | 0.00081 ± 0.0005 µM
AUCUGAUUU (ssRNA) | U2AF2 | sequencing of bound RNA | RNA | motif only |  | Kd | 3.58 µM
CAATACACTGTTATCAGACACACGTGGCGAGCTACTCGTTCGGTTATCCGGCGGTATGAC (dsDNA) | CBF1 | MITOMI | double-stranded DNA, one strand shown | not purified |  | Kd | 0.193 ± 0.009 µM
TTGTGCTACGGTCTCTCCACCCCCTGCTGCTGCTGTCAAGTCAATCGGTCC (dsDNA; blunt; 5'-amino-C6 primer) | SPT15 full length assumed | EMSA | double-stranded DNA, one strand shown |  |  | Kd | 0.0016 ± 0.0005 µM
AUUUACAUU (ssRNA) | U2AF2 | sequencing of bound RNA | RNA | motif only |  | Kd | 11.7 µM
GGGAGCAGGAGAGAGGUCAGAUGUUAGGAGUUACGAGAGAUGUGGCAUGUGCCUAUGCGUGCUAGUGUGA (ssRNA; 2'-fluoro pyrimidines) | TGM2 | SPR | RNA | added: MgCl2 5 mM | higher = more binding | relative binding | 51.8 RU
DNA 1 GATTTAATATTAACTTATATATGTAAACTTATTTATCAATTCAATCGGTCC / DNA 2 GGACCGATTGACTTGATAAATAAGTTTACATATATAAGTTAATATTAAATC (dsDNA; 5'-amino-C6 primer) | SUA7 full length assumed | array | double-stranded DNA | TFIIB alone |  | Kd | 0.00171 ± 0.00039 µM
GGGAGCAGGAGAGAGGUCAGAUGAGGGGGCAAAUUGGAAACCCGGGGUUCUAACCUAUGCGUGCUAGUGUGA (ssRNA; 2'-fluoro pyrimidines) | TGM2 | SPR | RNA | added: MgCl2 5 mM | higher = more binding | relative binding | 44.6 RU
CTCAGGAATTCCTATAACGTAATGTGGAGCTCAGTTCAAGTCAATCGGTCC (dsDNA; 5'-amino-C6 primer) | SPT15 full length assumed | array | double-stranded DNA, one strand shown | TBP alone |  | Kd | 0.00133 ± 7e-05 µM
GGGAGCAGGAGAGAGGUCAGAUGAACAAUGUAAAAUUGUGCAAGCCUAUCUUCCUAUGCGUGCUAGUGUGA (ssRNA; 2'-fluoro pyrimidines) | TGM2 | SPR | RNA | added: MgCl2 5 mM | higher = more binding | relative binding | -24.1 RU
B1 (human septin-2) | PP6C (human) | co-immunoprecipitation, IP-MS | CYB5R4 knockout cells | concentration not given | reference: CYB5R4 knockout over parental | log2 fold change | -0.66
TCCTGAAGGGACGCCCTAGCTTGGTCCTATCGTCGTCAAGTCAATCGGTCC (dsDNA; 5'-amino-C6 primer) | SPT15 full length assumed | array | double-stranded DNA, one strand shown | TBP alone |  | Kd | 0.00423 ± 0.00033 µM
GGGAGCAGGAGAGAGGUCAGAUGAACGAGAGAUGGUAGGCCUCCAAGCUCACGCCUAUGCGUGCUAGUGUGA (ssRNA; 2'-fluoro pyrimidines) | TGM2 | SPR | RNA | added: MgCl2 5 mM | higher = more binding | relative binding | 40.4 RU

Some of these lines once more:
Substance | tested on | assay | test system | setting | how to read | endpoint | result
CTCAGGAATTCCTATAACGTAATGTGGAGCTCAGTTCAAGTCAATCGGTCC (dsDNA; 5'-amino-C6 primer) | SPT15 full length assumed | array | double-stranded DNA, one strand shown | TBP alone |  | Kd | 0.00133 ± 7e-05 µM
GGGAGCAGGAGAGAGGUCAGAUGAACAAUGUAAAAUUGUGCAAGCCUAUCUUCCUAUGCGUGCUAGUGUGA (ssRNA; 2'-fluoro pyrimidines) | TGM2 | SPR | RNA | added: MgCl2 5 mM | higher = more binding | relative binding | -24.1 RU
B1 (human septin-2) | PP6C (human) | co-immunoprecipitation, IP-MS | CYB5R4 knockout cells | concentration not given | reference: CYB5R4 knockout over parental | log2 fold change | -0.66
TCCTGAAGGGACGCCCTAGCTTGGTCCTATCGTCGTCAAGTCAATCGGTCC (dsDNA; 5'-amino-C6 primer) | SPT15 full length assumed | array | double-stranded DNA, one strand shown | TBP alone |  | Kd | 0.00423 ± 0.00033 µM
GGGAGCAGGAGAGAGGUCAGAUGAACGAGAGAUGGUAGGCCUCCAAGCUCACGCCUAUGCGUGCUAGUGUGA (ssRNA; 2'-fluoro pyrimidines) | TGM2 | SPR | RNA | added: MgCl2 5 mM | higher = more binding | relative binding | 40.4 RU
